Measurements from different studies.
Each numbered part is a random draw from the data of one study; scales do not carry over between parts. Substitutions count along the parent as printed.

Study 1 — method: DHFR PCA, deep sequencing; sample: yeast; together with: (+)-ABA 58 µM; baseline: wild-type fitted maximum; reading: higher = stronger binding
Target: ABI1, truncated, D143A, DHFR fusion (Arabidopsis thaliana)
Setting: methotrexate growth selection, single substitutions
Parent: PYL1, truncated, DHFR fusion (Arabidopsis thaliana); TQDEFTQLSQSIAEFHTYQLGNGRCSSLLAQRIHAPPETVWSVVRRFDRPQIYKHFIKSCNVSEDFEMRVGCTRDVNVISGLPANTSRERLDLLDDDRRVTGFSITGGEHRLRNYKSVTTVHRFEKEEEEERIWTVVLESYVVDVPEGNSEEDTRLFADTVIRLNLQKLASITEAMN; partner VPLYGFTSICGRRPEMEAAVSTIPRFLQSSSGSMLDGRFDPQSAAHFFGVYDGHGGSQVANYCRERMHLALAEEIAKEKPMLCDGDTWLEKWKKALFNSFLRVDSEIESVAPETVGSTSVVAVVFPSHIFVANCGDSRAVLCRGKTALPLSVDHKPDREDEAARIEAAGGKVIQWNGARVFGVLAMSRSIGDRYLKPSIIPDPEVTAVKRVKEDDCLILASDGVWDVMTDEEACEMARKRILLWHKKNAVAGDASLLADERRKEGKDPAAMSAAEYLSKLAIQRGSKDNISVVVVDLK
Change	relative binding score [%]
E152C	73.5
T173F	60.1
Q19Y	82.6
R49M	77.5
G102K	39.1
E4T	89.8
C72T	78.3
E131N	104
D95Y	34.4
S117Q	50.1
F47K	-5.69
F15L	70.8
R155C	73.9
R46S	75.2
T160N	69.1
N149C	41.6
Y18F	77.5

Study 2 — target: CCNB3, cyclin fold, Cln2 fusion (human); method: yeast growth competition, sequencing; sample: yeast; setting: weak parent motif; baseline: not given; reading: higher = stronger binding
Parent: PKMYT1 docking peptide (human); SFEPRNLLSLFED; partner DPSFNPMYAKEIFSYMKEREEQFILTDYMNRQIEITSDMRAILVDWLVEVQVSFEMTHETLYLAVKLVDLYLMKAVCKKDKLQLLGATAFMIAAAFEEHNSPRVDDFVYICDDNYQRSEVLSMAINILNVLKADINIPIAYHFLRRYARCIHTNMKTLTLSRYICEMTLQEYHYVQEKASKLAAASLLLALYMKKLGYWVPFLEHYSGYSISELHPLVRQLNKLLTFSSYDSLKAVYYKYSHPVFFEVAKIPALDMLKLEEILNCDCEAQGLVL
Change	normalised enrichment score
SFEPRNLTSLFED [L8T]	0.571
SAEPRNLLSLFED [F2A]	0.521
SFEPRNLLALFED [S9A]	0.609
SFEPRNLLSLFID [E12I]	0.621
SFEPRNLQSLFED [L8Q]	0.281
SFEPRNLLSLFES [D13S]	0.174
SFEPNNLLSLFED [R5N]	0.286
SFEPRNLLSMFED [L10M]	0.0159
SFEPRNLLSLFCD [E12C]	0.566
SFEDRNLLSLFED [P4D]	0.446
SFEPANLLSLFED [R5A]	0.499
SFEPPNLLSLFED [R5P]	0.239
SCEPRNLLSLFED [F2C]	0.586
SFEPHNLLSLFED [R5H]	-0.0366
SFEPRNLLSWFED [L10W]	0.602
SFEPRNLLSLFEF [D13F]	0.643
SFEPRNLLSLVED [F11V]	0.275

Study 3 — method: universal PBM; form: double-stranded DNA, one strand shown; sample: in vitro; concentration: 600 nM; reading: higher = stronger binding
Target: Sal-like protein 4, full length isoform A (SALL4, Homo sapiens, UniProt Q9UJQ4, residues 1-1053)
Chain of UniProt Q9UJQ4 (whole entry, looked up): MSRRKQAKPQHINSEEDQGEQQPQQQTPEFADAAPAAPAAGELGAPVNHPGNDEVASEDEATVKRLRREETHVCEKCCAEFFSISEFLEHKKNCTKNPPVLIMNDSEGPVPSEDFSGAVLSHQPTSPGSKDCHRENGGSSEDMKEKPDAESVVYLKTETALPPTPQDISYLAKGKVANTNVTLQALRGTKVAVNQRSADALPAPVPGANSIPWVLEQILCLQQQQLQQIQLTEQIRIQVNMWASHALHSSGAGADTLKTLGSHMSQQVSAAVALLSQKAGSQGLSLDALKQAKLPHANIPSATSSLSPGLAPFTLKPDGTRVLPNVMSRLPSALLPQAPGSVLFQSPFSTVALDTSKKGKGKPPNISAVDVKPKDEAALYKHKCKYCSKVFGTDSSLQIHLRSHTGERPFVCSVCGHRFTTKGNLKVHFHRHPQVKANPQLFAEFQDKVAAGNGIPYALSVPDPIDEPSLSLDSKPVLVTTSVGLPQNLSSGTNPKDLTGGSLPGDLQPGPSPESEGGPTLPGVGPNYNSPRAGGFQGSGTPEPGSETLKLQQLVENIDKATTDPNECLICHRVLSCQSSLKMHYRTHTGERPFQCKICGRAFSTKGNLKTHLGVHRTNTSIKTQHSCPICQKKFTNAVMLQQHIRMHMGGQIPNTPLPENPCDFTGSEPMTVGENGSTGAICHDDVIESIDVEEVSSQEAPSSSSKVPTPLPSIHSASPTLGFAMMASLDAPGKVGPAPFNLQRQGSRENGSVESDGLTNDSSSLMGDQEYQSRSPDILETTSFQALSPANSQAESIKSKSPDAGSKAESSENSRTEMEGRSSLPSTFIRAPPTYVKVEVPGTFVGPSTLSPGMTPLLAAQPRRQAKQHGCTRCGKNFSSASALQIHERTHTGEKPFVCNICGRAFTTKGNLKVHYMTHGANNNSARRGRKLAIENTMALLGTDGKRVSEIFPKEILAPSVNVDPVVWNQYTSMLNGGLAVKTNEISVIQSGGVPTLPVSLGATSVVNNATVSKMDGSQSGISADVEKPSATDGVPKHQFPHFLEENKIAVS
Setting: 8-mer, flanks averaged, mean of replicates
Sequence	E-score
GAGTCTGA	-0.165
ACTCCCGG	-0.259
AAGGTTCA	-0.0137
GGGATGCA	-0.0915
GCTTAATA	0.255
ATGGATCA	0.0715
ACACTTAC	0.155
ACAAATAG	0.301
CACCACGC	-0.24
TAGCGGAA	-0.106
ACGCCGAG	-0.317
GTCCGCAA	-0.121
GATGTACA	0.167
CACGTGGG	-0.322
AAATCGCC	-0.188
AGCTTGCG	-0.167
ATCAGGAT	0.112
ACGAGATG	-0.0974
TCGAGCCA	-0.179
TCAGCTAA	0.173
AGAGGTAT	0.217
CTAGATTA	0.207
AGACGGTA	0.0192
AATCAGCA	0.0788

Study 4 — method: protein binding microarray; form: double-stranded DNA, one strand shown; sample: in vitro; concentration: not given; baseline: not given; reading: higher = stronger binding
Target: Histone acetyltransferase KAT6A, both winged helices, GST fusion (KAT6A, Homo sapiens, UniProt Q92794, residues 1-181)
Setting: 8-mer, flanks averaged, mean of 2 arrays, mostly near background
Target sequence (chain): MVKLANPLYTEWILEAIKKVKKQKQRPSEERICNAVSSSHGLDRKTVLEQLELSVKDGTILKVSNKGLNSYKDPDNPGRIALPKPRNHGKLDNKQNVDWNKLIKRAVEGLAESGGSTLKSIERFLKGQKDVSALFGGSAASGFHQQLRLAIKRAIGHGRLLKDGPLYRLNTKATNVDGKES
Sequence	E-score
GCTACGAA	0.0371
AACAGGAC	-0.157
AGTTACTG	-0.117
GCCGTATA	0.179
ATATCCGG	0.134
AGCGCAAA	0.225
CAACTGCG	0.171
AGCCTACC	-0.12
CTACGACC	-0.00488
AACCCGAA	0.117
CCGGGTTA	0.249
AGCACAAC	-0.106
CTATCGAG	-0.0527
CAGGCATA	-0.114
AGGAACAC	-0.0118
GGACGTCC	0.0188
CAGAAGTA	-0.107
CCGTGTCC	0.155
GAAGGCCC	0.0392
AGCATAAC	-0.125
CCTGCTCA	-0.198

Study 5 — method: RNA Bind-n-Seq; form: RNA; sample: in vitro; concentration: 365 nM; baseline: no-protein control; reading: higher = stronger binding
Target: RNA binding protein fox-1 homolog 2, RRM domain, GST-SBP tag (RBFOX2, Homo sapiens, UniProt O43251-10, residues 100-194)
Setting: natural RNA segment, single round, ends assumed
Shared flanks, not repeated: GGGAGUUCUACAGUCCGACGAUC … UGGAAUUCUCGGGUGCCAA
Residues (chain): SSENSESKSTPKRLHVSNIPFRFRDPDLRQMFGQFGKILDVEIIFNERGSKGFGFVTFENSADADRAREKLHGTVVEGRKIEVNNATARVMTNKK
Sequence	RBNS enrichment (R)
CAGGGGAAGUGGGAGCAGAUGGCCUGCCUGUGGUUGAGAGGGCUACCUGCCCGACCCCUCCCCCACCAAGGUAUCUUGGGCUCCAGCCUCAGAGCCUGGACUAGUUCUGA	1.02
GAGCGCAGAGUGUAAAAUUUUAAUUCAAAAUGGUGGCUAUACUCACUACACAUAAAUCUCAUAAUCUUUUUGUCUUUGGAGAUUCCAUUGUGGACAGUAAUACGCAGUUA	0.908
GCCAUUGGCUUUAGGUCUCUGGACCAGAGACAGGAGAGGCUUUGCGACUCCAAAGCUCUAGGCCAGAUGUUACAGUUGUUCGCAGCAGGCUCGAUUCUGCCCUCUCUUUU	0.233
AGCUCCAAGAAGUCAGCACACCUGCAUUUUAGCUCUGCAUGCAGCCCCAGCAGGCUGCGUGUUUAAGAAUUUCAUUGUUUAACUGGCUGGUGUGAGAAGUCUUCCGUUAG	0.308
CCCUUUGCUGACCCUCCCCAAAGGCUUUGCCCUGCUGCCCUCCCCCUCCUCUCCACCAUCGUCUUCUUGGCCAUGGGAGGCCUUUCCCUAAGCCAGCUGCCCCCAGAGCC	0.765
GGAGAAUGGAGUAGAGUCCCUUGGUACAAGCUCCUCUCCCCCCUCUUUUCCCACCAACUCCUAUUUCCCUACCAACCAAGGAGCCUCCAGAAGGAAAGGAGGAAGAAAUG	0.708
UGAUGUGAUUAAAUUAUAGUUCCUGCUGUUAAAUUGCCUUUUGAAAACUUGGCUCCAGGGUUGGUGCUUCUUAAAUGGGGAAAGGCACAGUGAACUUCAGCCAUAUUAAG	0.556
UUCAGUACCACUUGUUUUUAGCAGACUGUCAUGGCUGCAGCUCUGUCUCUCUUGGGGUAAACUUGCUACCCCUGUGGUUGGGUCUAUGGUGGGAAAUGAAACAGUGUUCU	0.519
ACAGAUGGAGCUCCUUCCUAGCUAGGGAGACCUUAUGAGAAGUGGAUGGUAGGAGGAGUCACUAAUGUUUCAAUCUCUAUUUCUGUAAUCUUGGGCAAUAAUGCAUAGGA	0.457
ACGAUGGAUCCGUGACAGCACUUUCCUGUUGCACUGAAACUCUUGGCCAUGUAGAGGAAAAGAUAUGGAGUUAUGUGGAUUUCAUCACUAGUAUGUGUGCGUGAGCUGGU	13.8
CCGUAUGUGGCAAAUUCUAAGCUGCCAUAUUGAACAUCAUCCCACUGGGAGUGGUUAUGUUGUAUCCCCAUCUUGGCUGGCUUCAGUUUUUGCUGUAGCCCUAGAGCACU	0.272
GGGCUGCUAUGUGGUUCAGUUAAUCAGUGUGCCAAGAUUCUAAUAAAGUUGACCUUGGGUUCUGUGACACUAAGGAGCAAUCCUUACAAGGGAGGAACAGCUUCUAGCCA	0.286

Study 6 — method: RNA Bind-n-Seq; form: RNA; sample: in vitro; concentration: 100 nM; baseline: input RNA pool; reading: higher = stronger binding
Target: RING finger protein unkempt homolog, zinc fingers 1-6, SBP tag (UNK, Homo sapiens, UniProt Q9C0B0, residues 30-357)
Chain of UniProt Q9C0B0 (30-357, looked up): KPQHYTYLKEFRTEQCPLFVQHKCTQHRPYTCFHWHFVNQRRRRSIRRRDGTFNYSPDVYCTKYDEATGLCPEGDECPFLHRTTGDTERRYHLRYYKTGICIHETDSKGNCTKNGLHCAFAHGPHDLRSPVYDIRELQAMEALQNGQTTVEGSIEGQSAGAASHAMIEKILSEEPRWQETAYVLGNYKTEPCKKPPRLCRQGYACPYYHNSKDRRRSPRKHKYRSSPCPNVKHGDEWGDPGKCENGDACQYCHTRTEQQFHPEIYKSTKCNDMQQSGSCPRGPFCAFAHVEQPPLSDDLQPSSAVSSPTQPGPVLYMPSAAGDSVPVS
Setting: RNA with constant flanks, vertebrate orthologous sites, ends assumed
Shared flanks, not repeated: GGGAGUUCUACAGUCCGACGAUC … CAACAGAGGAUUGAGCAUCA
Sequence	bound/input enrichment
CUACUCCUGCUCCAGCAGGGGCGUGGGGCCGAAGCAUCCACCAGCGCUGCAAGGGGUCCACGGUAUUUUUUUUUUGGCUGCCUCAGUCCCCAGAGCCUUCAAGCAACAGUGGCGGUAGAU	0.555 ratio
UUGGUUGAAGGUAGAGGGGAGGGAGGGGCAGGACAGUGUGGAAUCUGUAGGGUGUUAUGGGUAGGUAGAGGGAAGAGUUCUAAGUGGGCCUUUAUGUUAAAAACCUAGAGGUGUCUAUUC	0.536 ratio
UCCUUUCAUACUGUCCCCAGUCAGGGCCAAGGACUUCAGUUACUUGCUGAGGACCUGCAUUUAAAAUCUUUUUUUAAAAAAAUUAUUAUAUAGGAAAAGGUGUGACUAAAACACCAUCUC	0.572 ratio
AGUGCUGAAUAGUAUUAAACAUUUUCGUCUUCCUUUACCUUUUAUCCCCUACCUAAUAUCUAGUCUACUUUUUUAAAUUUCAAAUUUCACUGCUCUUUGAAUUGAUAAUUUCAAUUUUCA	7.93 ratio
AAGAUGGUGGUUGUACAUUAUUUCAUUUAGAAAAUAUAAAAAUUCAUUUUGUUUUGAACCUAGGUAUUAAACUGGAAUAGCUCUUAACAUCCCUGAGAAUGGGGUGGUUGUGCCCUGACC	1.25 ratio
CUCUAUGGGCCUCGCAGAGUUGAAAUAAUAGAAGAGGACAGUGAACAGUAACCUUCAUUUUAGUAUUUAUGCUUAGGUGUGAAAUAAAUGUUACUCGUUGAUCAUUUCUAUAAUCCAGAG	0.531 ratio
CCUCCAGAAAAUGUUUAGCUUUCAAAUUGUGGCUGUUUUAGAUACUGGUUUUACUUUCUUUAGAAUUUUUUCCUGUUUCCCAUCUUCUCCUCCCCUGUUCCCAAGGUUUGACUCAUGGAA	2.45 ratio

Repeated from above (study 1):
Change	relative binding score [%]
E152C	73.5
R46S	75.2
S117Q	50.1
Y18F	77.5
E4T	89.8
R155C	73.9
Q19Y	82.6
E131N	104
